Experimental data from different studies.
Each line is one published result; not all experiments were run side by side.
CA9: Carbonic anhydrase 9 (CA9, Homo sapiens, UniProt Q16790)
TGFBR1: TGF-beta receptor type-1 (TGFBR1, Homo sapiens, UniProt P36897)
UniProt P36897, sequence (whole entry, looked up): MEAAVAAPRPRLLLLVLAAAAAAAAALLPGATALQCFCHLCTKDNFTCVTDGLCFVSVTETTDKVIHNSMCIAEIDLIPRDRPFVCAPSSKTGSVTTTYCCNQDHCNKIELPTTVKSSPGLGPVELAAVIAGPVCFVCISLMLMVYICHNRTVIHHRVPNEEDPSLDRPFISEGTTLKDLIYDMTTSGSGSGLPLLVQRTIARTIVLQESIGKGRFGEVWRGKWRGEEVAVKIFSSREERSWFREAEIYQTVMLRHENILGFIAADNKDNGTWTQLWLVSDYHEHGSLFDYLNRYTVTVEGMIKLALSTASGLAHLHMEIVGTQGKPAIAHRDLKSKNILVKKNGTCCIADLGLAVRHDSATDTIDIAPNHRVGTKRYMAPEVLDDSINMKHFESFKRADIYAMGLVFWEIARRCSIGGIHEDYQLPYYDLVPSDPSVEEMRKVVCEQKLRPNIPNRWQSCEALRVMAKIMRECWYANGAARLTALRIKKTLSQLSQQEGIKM
UniProt P0DMS8, sequence (whole entry, unmodified, looked up): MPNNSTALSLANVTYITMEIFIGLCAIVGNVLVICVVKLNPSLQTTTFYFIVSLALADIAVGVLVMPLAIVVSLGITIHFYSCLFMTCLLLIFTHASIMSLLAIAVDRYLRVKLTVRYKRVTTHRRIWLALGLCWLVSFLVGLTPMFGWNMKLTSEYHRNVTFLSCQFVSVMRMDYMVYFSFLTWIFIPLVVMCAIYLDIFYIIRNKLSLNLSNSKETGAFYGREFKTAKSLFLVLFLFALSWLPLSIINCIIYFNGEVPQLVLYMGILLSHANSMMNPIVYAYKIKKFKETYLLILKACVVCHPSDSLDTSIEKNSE
UniProt P25911, sequence (whole entry, looked up): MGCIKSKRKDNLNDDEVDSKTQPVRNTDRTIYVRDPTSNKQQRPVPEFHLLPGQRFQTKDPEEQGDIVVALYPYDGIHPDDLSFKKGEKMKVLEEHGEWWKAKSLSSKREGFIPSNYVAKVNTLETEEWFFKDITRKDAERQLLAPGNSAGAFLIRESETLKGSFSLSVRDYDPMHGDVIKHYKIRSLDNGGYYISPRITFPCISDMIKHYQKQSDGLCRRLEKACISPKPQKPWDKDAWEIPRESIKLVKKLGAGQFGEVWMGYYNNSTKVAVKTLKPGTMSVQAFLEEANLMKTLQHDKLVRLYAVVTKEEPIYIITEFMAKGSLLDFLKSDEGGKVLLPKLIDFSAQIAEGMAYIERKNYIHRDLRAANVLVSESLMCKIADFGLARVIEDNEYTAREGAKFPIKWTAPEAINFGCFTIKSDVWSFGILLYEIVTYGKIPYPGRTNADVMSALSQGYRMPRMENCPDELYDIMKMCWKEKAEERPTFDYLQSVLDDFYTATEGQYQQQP

| Structure (SMILES) | target or system | assay | test system | conditions | endpoint | result |
| --- | --- | --- | --- | --- | --- | --- |
| CCCN(O)N=Nc1ccc(S(=O)(=O)Nc2nccs2)cc1 | – | DPPH scavenging, absorbance | – | 300 µg/mL | inhibition | 29.2% |
| O=C(Nc1ccc(Oc2nnc(-c3ccc(Cl)cc3)c3ccccc23)cc1)c1ccccc1 | HepG2 | cell growth or viability, MTT | – | 1.25 µM, 24 h | viability | 4.88% |
| COc1cc(-c2nc3ccccc3c(=O)n2Nc2ccc([N+](=O)[O-])cc2[N+](=O)[O-])ccc1OCc1cn(CC(=O)Nc2ccc(C)cc2)nn1 | – | DPPH scavenging, absorbance | – | 100 µM | inhibition | 23.9% |
| Cc1cc(NS(=O)(=O)c2ccc(N=NN(C)O)cc2)no1 | – | DPPH scavenging, absorbance | – | 60 µg/mL | inhibition | 30.5% |
| Cc1cc(C)c(C#N)c(SCC(=O)c2ccccc2O)n1 | Leishmania infantum | parasite growth | mouse Macrophage | intracellular, amastigote | EC50 | 51 µM |
| CN(O)N=Nc1ccc(S(=O)(=O)Nc2nccs2)cc1 | – | DPPH scavenging, absorbance | – | 180 µg/mL | inhibition | 23.3% |
| CC(=NNC(N)=S)c1ccc(Nc2nnc(-c3ccc(Cl)cc3)c3ccccc23)cc1 | HepG2 | cell growth or viability, MTT | – | 0.156 µM | cell death | 53.5% |
| CCN(O)N=Nc1ccc(S(=O)(=O)Nc2nccs2)cc1 | – | DPPH scavenging, absorbance | – | 120 µg/mL | inhibition | 14.9% |
| CC(=NNC(=O)c1ccccc1O)c1ccc(Nc2nnc(-c3ccc(Cl)cc3)c3ccccc23)cc1 | HepG2 | cell growth or viability, MTT | – | 10 µM | cell death | 95.3% |
| CCCCn1cnc2ccc(-c3ccc(NC(=O)NCC)nc3)cc2c1=O | NCI-H1975 | cell growth or viability, CCK-8 | – | 72 h | IC50 | 7.43 µM |
| O=C1O[C@H]([C@@H](O)CO)C(O)=C1O | – | DPPH scavenging | – | 31.25 µg/mL | inhibition | 50% |
| O=C(O)c1ccc(O)cc1 | Helicobacter pylori | microbial growth, broth dilution | – | 0.24 µg/mL | inhibition | 84% |
| Cc1cc(C)c(C#N)c(SCC(=O)c2cccs2)n1 | Trypanosoma brucei | parasite growth, resazurin | RHODESIENSE | – | EC50 | > 64 µM |
| COc1cc(-c2cc(=O)c3c(O)cc(O)cc3o2)ccc1O | Helicobacter pylori | microbial growth, broth dilution | – | 0.98 µg/mL | inhibition | 55.2% |
| COc1cccc(-c2n[nH]c(SCc3ccccn3)n2)c1OC | – | – | female Sprague-Dawley rat, plasma | intravenous, 1 mg/kg, 30 min, single dose | concentration | 475 ng/mL |
| Cc1cccc(N(O)N=Nc2ccc(S(=O)(=O)Nc3onc(C)c3C)cc2)c1 | – | DPPH scavenging, absorbance | – | 240 µg/mL | inhibition | 30.2% |
| Cc1cc(C)c(C#N)c(SCC(=O)c2ccsc2)n1 | Trypanosoma brucei | parasite growth, resazurin | – | – | EC50 | > 64 µM |
| CC(=NNC(=O)c1ccccc1)c1ccc(Nc2nnc(-c3ccc(Cl)cc3)c3ccccc23)cc1 | HepG2 | cell growth or viability, MTT | – | 1.25 µM, 24 h | viability | 13.4% |
| CN(Cc1ccc(C(C)(C)C)cc1)Cc1cccc2ccccc12 | Trichophyton mentagrophytes | microbial growth, disc diffusion | ATCC18748 | 0.032 µg/mL, 72 h | inhibition zone | 55 mm |
| CCCCNC(=O)Nc1ccc(-c2ccc3ncn(CCCC)c(=O)c3c2)cn1 | NCI-H1975 | cell growth or viability, CCK-8 | – | 72 h | IC50 | 6.86 µM |
| COc1cc(-c2nc3ccccc3c(=O)n2Nc2ccc([N+](=O)[O-])cc2[N+](=O)[O-])ccc1OCc1cn(CC(=O)Nc2ccc(Cl)cc2Cl)nn1 | – | DPPH scavenging, absorbance | – | 100 µM | inhibition | 16.2% |
| NS(=O)(=O)c1ccc(Cl)c(C(=O)N2CCN(C(=O)c3cccc(Cl)c3)CC2)c1 | CA9 | enzyme activity, inhibitor | – | – | IC50 | 0.36 µM |
| Cc1cc(C)c(C#N)c(SCC(=O)c2ccccc2C)n1 | Trypanosoma brucei | parasite growth, resazurin | RHODESIENSE | – | EC50 | 33.5 µM |

| Structure (SMILES) | target or system | assay | test system | conditions | endpoint | result |
| --- | --- | --- | --- | --- | --- | --- |
| CNc1ncc2c(/C=C/C(=O)N3CCC(OC)CC3)nn(Cc3cccc(C(F)(F)F)c3)c2n1 | TGFBR1 | enzyme activity, inhibitor, radiometric | – | 1 µM | remaining activity | 86% |
| C=C[C@@]1(C)C=C2CC[C@@H]3[C@](C)(CCC[C@@]3(C)C(=O)O)[C@H]2CC1 | Helicobacter pylori | microbial growth, broth dilution | – | 0.48 µg/mL | inhibition | 13.9% |
| CC(=O)Nc1ccc(-n2nc(C(=O)Nc3ccc(S(N)(=O)=O)cc3)cc2-c2ccco2)cc1 | CA9 | enzyme activity, inhibitor | – | – | IC50 | 0.0603 µM |
| CC(=NNC(=O)c1ccncc1)c1ccc(Nc2nnc(-c3ccc(Cl)cc3)c3ccccc23)cc1 | HepG2 | cell growth or viability, MTT | – | 10 µM | cell death | 94.6% |
| COc1cc(-c2nc3ccccc3c(=O)n2Nc2ccc([N+](=O)[O-])cc2[N+](=O)[O-])ccc1OCc1cn(CC(=O)Nc2ccc([N+](=O)[O-])cc2)nn1 | – | DPPH scavenging, absorbance | – | 100 µM | inhibition | 17.2% |
| CC(=NNC(=O)c1ccccc1Br)c1ccc(Nc2nnc(-c3ccc(Cl)cc3)c3ccccc23)cc1 | HepG2 | cell growth or viability, MTT | – | 2.5 µM, 24 h | viability | 4.16% |
| Cc1cc([C@@H](C)Nc2ccccc2C(=O)O)c2nc(N3CCC(F)(F)CC3)c(C#N)c(=O)n2c1 | SRC (Homo sapiens, UniProt P12931) | binding, competition with immobilised ligand | – | 1 µM | remaining binding | 97% |
| CN(C)c1ncnc2c1ncn2[C@@H]1O[C@H](CO)[C@@H](O)[C@H]1O | ADORA3 (Homo sapiens, UniProt P0DMS8, M174F) | G protein activation, agonist | – | – | EC50 | 35 µM |
| CC[C@H]1OC(=O)[C@H](C)[C@@H](O[C@H]2C[C@@](C)(OC)[C@@H](O)[C@H](C)O2)[C@H](C)[C@@H](O[C@@H]2O[C@H](C)C[C@H](N(C)C)[C@H]2O)[C@](C)(OC)C[C@@H](C)C(=O)[C@H](C)[C@@H](O)[C@]1(C)O | Helicobacter pylori | microbial growth, broth dilution | – | 0.48 µg/mL | inhibition | 87.7% |
| Cc1cc(C)c(C#N)c(SCC(=O)Nc2ccccc2)n1 | Trypanosoma brucei | parasite growth, resazurin | RHODESIENSE | – | EC50 | > 64 µM |
| Cc1ccccc1NC(=O)Nc1ccc(-c2ccc3ncn(Cc4ccccc4)c(=O)c3c2)cn1 | NCI-H1975 | cell growth or viability, CCK-8 | – | 72 h | IC50 | 1.95 µM |
| COC(=O)c1ccc(O)cc1 | Helicobacter pylori | microbial growth, broth dilution | – | 62.5 µg/mL | inhibition | 100% |
| Cc1cc(C)c(C(N)=O)c(SCC(=O)c2ccc(F)cc2)n1 | Leishmania infantum | parasite growth | mouse Macrophage | intracellular, amastigote | EC50 | > 64 µM |
| COc1cc(-c2cncc3c2CN(C)Cc2cc(N4CCNCC4)ccc2-3)cc(OC)c1OC | Lyn (Mus musculus, UniProt P25911) | enzyme activity, inhibitor | – | 1 µM | remaining activity | 44% |
| O=S(=O)(Nc1nccs1)c1ccc(N=NN(O)c2ccccc2)cc1 | – | DPPH scavenging, absorbance | – | 60 µg/mL | inhibition | 31% |
| C=CC(=O)N1CCC(COCC(=O)N2CCN(c3nc(-c4cnc(N)nc4C(F)F)nc(N4CCOC[C@@H]4C)n3)CC2)CC1 | TGFBR1 | binding, competition with immobilised ligand | – | 1 µM | remaining binding | 100% |
| CC(=NNC(=O)c1ccc(N)cc1)c1ccc(Nc2nnc(-c3ccc(Cl)cc3)c3ccccc23)cc1 | HepG2 | cell growth or viability, MTT | – | 1.25 µM, 24 h | viability | 46% |
| CCCN(O)N=Nc1ccc(S(=O)(=O)Nc2onc(C)c2C)cc1 | – | DPPH scavenging, absorbance | – | 180 µg/mL | inhibition | 13.3% |
| CN(Cc1ccc(C2(C(F)(F)F)CC2)cc1)Cc1cccc2ccccc12 | Trichophyton mentagrophytes | microbial growth, disc diffusion | ATCC18748 | 0.064 µg/mL, 72 h | inhibition zone | 55 mm |
| O=C(Nc1ccc(Oc2nnc(-c3ccc(Cl)cc3)c3ccccc23)cc1)c1cccc([N+](=O)[O-])c1 | HepG2 | cell growth or viability, MTT | – | 0.312 µM | cell death | 0.43% |
| COc1ccc(Cn2cnc3ccc(-c4ccc(NC(=O)c5ccccc5)nc4)cc3c2=O)cc1 | HCC827 | cell growth or viability, CCK-8 | – | 72 h | IC50 | > 10 µM |
| Cc1ccc(N(O)N=Nc2ccc(S(=O)(=O)Nc3onc(C)c3C)cc2)cc1 | – | DPPH scavenging, absorbance | – | 180 µg/mL | inhibition | 29.4% |
| COc1ccc(-c2cc(=O)c3c(O)cc(O[C@@H]4O[C@H](CO)[C@@H](O)[C@H](O)[C@H]4O)cc3o2)cc1O | Helicobacter pylori | microbial growth, broth dilution | – | 15.63 µg/mL | inhibition | 100% |

A few entries again:
| Structure (SMILES) | target or system | assay | test system | conditions | endpoint | result |
| --- | --- | --- | --- | --- | --- | --- |
| CN(Cc1ccc(C2(C(F)(F)F)CC2)cc1)Cc1cccc2ccccc12 | Trichophyton mentagrophytes | microbial growth, disc diffusion | ATCC18748 | 0.064 µg/mL, 72 h | inhibition zone | 55 mm |
| O=C(Nc1ccc(Oc2nnc(-c3ccc(Cl)cc3)c3ccccc23)cc1)c1cccc([N+](=O)[O-])c1 | HepG2 | cell growth or viability, MTT | – | 0.312 µM | cell death | 0.43% |
| COc1ccc(Cn2cnc3ccc(-c4ccc(NC(=O)c5ccccc5)nc4)cc3c2=O)cc1 | HCC827 | cell growth or viability, CCK-8 | – | 72 h | IC50 | > 10 µM |
| Cc1ccc(N(O)N=Nc2ccc(S(=O)(=O)Nc3onc(C)c3C)cc2)cc1 | – | DPPH scavenging, absorbance | – | 180 µg/mL | inhibition | 29.4% |
| COc1ccc(-c2cc(=O)c3c(O)cc(O[C@@H]4O[C@H](CO)[C@@H](O)[C@H](O)[C@H]4O)cc3o2)cc1O | Helicobacter pylori | microbial growth, broth dilution | – | 15.63 µg/mL | inhibition | 100% |
